Measurements from different studies.
Numbered parts are unrelated; each lists some results of a single study.
Sequence of UniProt P51812 (whole entry, looked up): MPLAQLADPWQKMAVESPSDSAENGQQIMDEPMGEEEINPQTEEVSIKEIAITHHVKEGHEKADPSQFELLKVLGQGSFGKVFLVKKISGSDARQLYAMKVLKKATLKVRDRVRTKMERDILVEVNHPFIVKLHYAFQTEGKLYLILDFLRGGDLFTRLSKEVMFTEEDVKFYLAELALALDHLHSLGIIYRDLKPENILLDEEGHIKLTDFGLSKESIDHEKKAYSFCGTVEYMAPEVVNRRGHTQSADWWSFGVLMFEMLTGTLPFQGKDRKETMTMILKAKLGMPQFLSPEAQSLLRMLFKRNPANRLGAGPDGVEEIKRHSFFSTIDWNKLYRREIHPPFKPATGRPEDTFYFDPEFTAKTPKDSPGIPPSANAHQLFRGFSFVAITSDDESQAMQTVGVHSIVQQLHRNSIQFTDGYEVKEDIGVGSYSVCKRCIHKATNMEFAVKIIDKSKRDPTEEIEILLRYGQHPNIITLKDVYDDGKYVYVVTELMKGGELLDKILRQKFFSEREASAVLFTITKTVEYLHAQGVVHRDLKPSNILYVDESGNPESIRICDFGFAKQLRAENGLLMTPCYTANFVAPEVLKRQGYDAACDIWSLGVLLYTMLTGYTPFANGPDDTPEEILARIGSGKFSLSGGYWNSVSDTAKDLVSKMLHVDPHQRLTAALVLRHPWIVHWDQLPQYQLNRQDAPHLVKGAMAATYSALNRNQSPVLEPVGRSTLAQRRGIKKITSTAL
Sequence of UniProt Q9H1R3 (whole entry, looked up): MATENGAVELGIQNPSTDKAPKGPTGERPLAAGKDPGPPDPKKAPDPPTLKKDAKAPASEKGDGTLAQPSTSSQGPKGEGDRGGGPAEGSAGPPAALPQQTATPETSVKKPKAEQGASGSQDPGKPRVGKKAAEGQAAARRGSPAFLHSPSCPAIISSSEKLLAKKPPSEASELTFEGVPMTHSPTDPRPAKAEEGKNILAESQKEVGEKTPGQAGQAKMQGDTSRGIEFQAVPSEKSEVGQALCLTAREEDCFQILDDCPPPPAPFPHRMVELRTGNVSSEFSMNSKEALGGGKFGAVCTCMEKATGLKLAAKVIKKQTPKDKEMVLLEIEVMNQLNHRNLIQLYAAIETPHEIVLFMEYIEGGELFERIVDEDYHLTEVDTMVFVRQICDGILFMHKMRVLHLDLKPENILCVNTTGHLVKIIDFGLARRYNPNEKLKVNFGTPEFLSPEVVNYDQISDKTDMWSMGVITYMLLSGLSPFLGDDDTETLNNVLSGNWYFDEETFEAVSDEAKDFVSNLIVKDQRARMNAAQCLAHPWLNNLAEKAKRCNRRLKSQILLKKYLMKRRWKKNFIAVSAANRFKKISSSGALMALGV
Sequence of UniProt O14578 (whole entry, looked up): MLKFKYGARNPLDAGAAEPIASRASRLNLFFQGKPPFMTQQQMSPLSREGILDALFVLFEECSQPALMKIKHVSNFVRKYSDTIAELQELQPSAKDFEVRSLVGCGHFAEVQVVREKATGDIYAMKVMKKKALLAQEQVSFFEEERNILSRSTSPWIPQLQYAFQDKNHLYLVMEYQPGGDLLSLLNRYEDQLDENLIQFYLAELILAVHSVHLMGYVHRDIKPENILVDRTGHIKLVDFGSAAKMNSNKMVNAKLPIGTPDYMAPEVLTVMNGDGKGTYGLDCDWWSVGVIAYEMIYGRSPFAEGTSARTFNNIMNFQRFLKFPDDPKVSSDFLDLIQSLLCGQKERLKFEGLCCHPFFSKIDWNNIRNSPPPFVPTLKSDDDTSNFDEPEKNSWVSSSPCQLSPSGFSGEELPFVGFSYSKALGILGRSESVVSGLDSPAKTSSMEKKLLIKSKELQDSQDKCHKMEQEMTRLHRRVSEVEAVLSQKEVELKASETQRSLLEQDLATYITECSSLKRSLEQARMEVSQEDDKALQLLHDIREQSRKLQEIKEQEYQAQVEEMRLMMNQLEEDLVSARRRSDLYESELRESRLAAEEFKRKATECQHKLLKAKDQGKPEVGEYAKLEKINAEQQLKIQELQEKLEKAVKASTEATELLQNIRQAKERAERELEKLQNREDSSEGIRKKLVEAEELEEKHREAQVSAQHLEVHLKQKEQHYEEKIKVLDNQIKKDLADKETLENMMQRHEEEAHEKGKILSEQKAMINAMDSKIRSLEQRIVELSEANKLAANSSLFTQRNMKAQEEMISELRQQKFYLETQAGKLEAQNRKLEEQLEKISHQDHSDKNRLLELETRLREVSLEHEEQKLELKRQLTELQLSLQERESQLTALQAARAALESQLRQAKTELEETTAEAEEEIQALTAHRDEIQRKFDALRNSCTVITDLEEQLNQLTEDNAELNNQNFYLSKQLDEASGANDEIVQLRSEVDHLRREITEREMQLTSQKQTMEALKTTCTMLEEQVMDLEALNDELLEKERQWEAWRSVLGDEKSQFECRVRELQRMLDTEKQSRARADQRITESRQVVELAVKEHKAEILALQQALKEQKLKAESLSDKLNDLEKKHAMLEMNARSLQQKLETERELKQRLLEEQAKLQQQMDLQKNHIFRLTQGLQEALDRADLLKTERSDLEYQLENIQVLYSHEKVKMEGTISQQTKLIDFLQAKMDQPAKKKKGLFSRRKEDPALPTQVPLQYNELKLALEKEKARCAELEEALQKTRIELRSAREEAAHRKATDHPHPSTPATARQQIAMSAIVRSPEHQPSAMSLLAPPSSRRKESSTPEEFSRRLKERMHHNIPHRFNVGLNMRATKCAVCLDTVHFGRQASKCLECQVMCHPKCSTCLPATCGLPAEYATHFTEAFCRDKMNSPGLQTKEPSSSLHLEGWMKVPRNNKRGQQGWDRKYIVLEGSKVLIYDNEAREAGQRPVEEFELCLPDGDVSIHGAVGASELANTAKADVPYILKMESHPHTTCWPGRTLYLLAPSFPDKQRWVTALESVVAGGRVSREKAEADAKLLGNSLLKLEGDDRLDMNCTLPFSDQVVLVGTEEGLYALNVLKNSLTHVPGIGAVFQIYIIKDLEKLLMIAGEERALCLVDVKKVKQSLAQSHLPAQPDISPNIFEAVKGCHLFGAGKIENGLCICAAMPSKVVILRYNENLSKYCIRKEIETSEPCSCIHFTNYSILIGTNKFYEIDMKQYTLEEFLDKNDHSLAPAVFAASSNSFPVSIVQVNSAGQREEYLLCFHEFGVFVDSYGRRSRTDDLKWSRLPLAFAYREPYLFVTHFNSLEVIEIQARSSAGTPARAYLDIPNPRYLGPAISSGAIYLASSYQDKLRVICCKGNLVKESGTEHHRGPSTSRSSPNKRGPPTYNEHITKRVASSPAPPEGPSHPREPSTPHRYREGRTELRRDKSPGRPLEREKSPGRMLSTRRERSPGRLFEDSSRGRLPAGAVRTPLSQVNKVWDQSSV

Study 1
SMILES: CC[C@@]1(c2cccc(C(F)(F)F)c2)C2=C(Nc3n[nH]cc31)[C@H](F)C(C)(C)CC2=O (single isomer, unassigned)
Concentration: 1 µM
The remaining binding was 100% (Mitogen-activated protein kinase kinase kinase 2 (MAP3K2, Homo sapiens, UniProt Q9Y2U5); kinase binding, KINOMEscan; reference: DMSO control).
The remaining binding was 72% (Tyrosine-protein kinase ABL1, phosphorylated (ABL1, Homo sapiens, UniProt P00519, H396P); kinase binding, KINOMEscan; reference: DMSO control).
The remaining binding was 100% (Proto-oncogene tyrosine-protein kinase Src (SRC, Homo sapiens, UniProt P12931); kinase binding, KINOMEscan; reference: DMSO control).
For Serine/threonine-protein kinase Sgk2 (SGK2, Homo sapiens, UniProt Q9HBY8); binding, competition with immobilised ligand: remaining binding read 100%.
For Serine/threonine-protein kinase 16 (STK16, Homo sapiens, UniProt O75716); binding, competition with immobilised ligand: remaining binding read 90%.
For Myosin light chain kinase 2, skeletal/cardiac muscle (MYLK2, Homo sapiens, UniProt Q9H1R3); kinase binding, KINOMEscan; reference: DMSO control: remaining binding read 100%.
For Non-receptor tyrosine-protein kinase TYK2, JH2 (TYK2, Homo sapiens, UniProt P29597); binding, competition with immobilised ligand: remaining binding read 82%.
For Citron Rho-interacting kinase (CIT, Homo sapiens, UniProt O14578); kinase binding, KINOMEscan; reference: DMSO control: remaining binding read 99%.
The remaining binding was 98% (Cyclin-dependent kinase 4, with cyclin D3 (CDK4, Homo sapiens, UniProt P11802); kinase binding, KINOMEscan; reference: DMSO control).
It gave 77% for remaining binding (Death-associated protein kinase 1 (DAPK1, Homo sapiens, UniProt P53355); binding, competition with immobilised ligand).
For LIM domain kinase 1 (LIMK1, Homo sapiens, UniProt P53667); binding, competition with immobilised ligand: remaining binding read 94%.
Misshapen-like kinase 1 (MINK1, Homo sapiens, UniProt Q8N4C8); kinase binding, KINOMEscan; reference: DMSO control — remaining binding: 100%.
Ribosomal protein S6 kinase alpha-3, C-terminal kinase domain (RPS6KA3, Homo sapiens, UniProt P51812); binding, competition with immobilised ligand — remaining binding: 55%.
It gave 100% for remaining binding (Platelet-derived growth factor receptor beta (PDGFRB, Homo sapiens, UniProt P09619); binding, competition with immobilised ligand).
The remaining binding was 87% (Serine/threonine-protein kinase Nek11 (NEK11, Homo sapiens, UniProt Q8NG66); binding, competition with immobilised ligand).
It gave 100% for remaining binding (Mitogen-activated protein kinase kinase kinase 5 (MAP3K5, Homo sapiens, UniProt Q99683); kinase binding, KINOMEscan; reference: DMSO control).
Tyrosine-protein kinase SYK (SYK, Homo sapiens, UniProt P43405); kinase binding, KINOMEscan; reference: DMSO control — remaining binding: 100%.
For Ribosomal protein S6 kinase alpha-5, C-terminal kinase domain (RPS6KA5, Homo sapiens, UniProt O75582); kinase binding, KINOMEscan; reference: DMSO control: remaining binding read 90%.
It gave 75% for remaining binding (Insulin-like growth factor 1 receptor (IGF1R, Homo sapiens, UniProt P08069); binding, competition with immobilised ligand).

Study 2
Structure (SMILES): CCN1/C(=C/C=C2\CCCC(/C=C/C3=[N+](CC)c4ccccc4C3(C)C)=C2NCCCCCCCCN2CCC(Nc3nc4ccccc4n3Cc3ccc(F)cc3)CC2)C(C)(C)c2ccccc21
Cell line: U-87 MG
Concentration: concentration not given
Reference: DMSO
item: H2BC5 mRNA — “log2 fold change”: 1.35.
item: UBAP1 mRNA — “log2 fold change”: 0.885.
For item: SLC26A4 mRNA: “log2 fold change” read -1.83.
item: GPR17 mRNA — “log2 fold change”: -7.07.
item: ZNF805 mRNA — “log2 fold change”: 1.09.
It gave -1.05 for “log2 fold change” (item: LRRN3 mRNA).
The “log2 fold change” was -1.19 (item: IL11RA mRNA).
For item: TES mRNA: “log2 fold change” read -1.49.
The “log2 fold change” was -1.77 (item: CSRNP3 mRNA).
item: ALDH1B1 mRNA — “log2 fold change”: -1.54.
item: DNAJB9 mRNA — “log2 fold change”: 2.82.
item: YIPF4 mRNA — “log2 fold change”: 0.898.
item: GSPT2 mRNA — “log2 fold change”: 1.06.
For item: SEMA3A mRNA: “log2 fold change” read 1.75.

Study 3
SMILES: Cc1ccc(O)c(C)c1-c1cnc2[nH]c(-c3cnc(N4CCC5(CC4)CC(N4CCN(c6ccc(NC7CCC(=O)NC7=O)cc6F)CC4)CO5)nc3)cc2c1C#N (stereo not shown)
Target: Membrane-associated tyrosine- and threonine-specific cdc2-inhibitory kinase (PKMYT1, Homo sapiens, UniProt Q99640)
Residues (Q99640 1-499): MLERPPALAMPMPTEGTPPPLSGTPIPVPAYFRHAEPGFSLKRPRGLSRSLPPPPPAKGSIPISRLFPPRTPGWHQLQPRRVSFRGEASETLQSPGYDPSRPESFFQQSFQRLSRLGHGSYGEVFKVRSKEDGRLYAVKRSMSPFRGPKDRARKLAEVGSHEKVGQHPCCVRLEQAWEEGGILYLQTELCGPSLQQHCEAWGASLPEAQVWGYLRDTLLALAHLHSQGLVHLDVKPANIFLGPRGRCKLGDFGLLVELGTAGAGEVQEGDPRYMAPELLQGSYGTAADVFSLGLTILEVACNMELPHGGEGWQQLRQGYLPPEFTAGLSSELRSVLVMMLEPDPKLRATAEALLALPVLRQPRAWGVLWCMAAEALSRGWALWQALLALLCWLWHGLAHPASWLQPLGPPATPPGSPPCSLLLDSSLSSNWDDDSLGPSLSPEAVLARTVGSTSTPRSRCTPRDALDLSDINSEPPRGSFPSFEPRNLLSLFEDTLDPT
The degradation was 12.3% (MDA-MB-157; 0.15 nM).
For MDA-MB-157; 4.12 nM: degradation read 61.9%.
For HCC1599; 0.15 nM: degradation read 24.7%.
It gave 30.2% for degradation (HuCCT-1; 1000 nM).
The degradation was 19.3% (HCC1599; 0.05 nM).
HuCCT-1; 111.11 nM — degradation: 55.1%.
The degradation was 66.6% (MDA-MB-157; 111.11 nM).
For HuCCT-1; 1.37 nM: degradation read 63.7%.

Study 4
SMILES: C[C@@H]1CN(c2ccc(-c3cc(C(=O)NCCOCCOCCOCCOCCNC(=O)Cn4cc(-c5[nH]cc(C(=O)N[C@@H](CC(N)=O)c6ccc(F)c(Cl)c6)c5-c5ccc(Cl)cc5F)cn4)ccc3F)cc2NC(=O)c2c[nH]c(=O)cc2C(F)(F)F)C[C@H](C)N1C
Observed: thermal unfolding
Technique: differential scanning fluorimetry
Concentration: 5.5 µM
Direction: higher = more unfolded
DCAF1: DDB1- and CUL4-associated factor 1 (DCAF1, Homo sapiens, UniProt Q9Y4B6)
Sequence of UniProt Q9Y4B6 (whole entry, looked up): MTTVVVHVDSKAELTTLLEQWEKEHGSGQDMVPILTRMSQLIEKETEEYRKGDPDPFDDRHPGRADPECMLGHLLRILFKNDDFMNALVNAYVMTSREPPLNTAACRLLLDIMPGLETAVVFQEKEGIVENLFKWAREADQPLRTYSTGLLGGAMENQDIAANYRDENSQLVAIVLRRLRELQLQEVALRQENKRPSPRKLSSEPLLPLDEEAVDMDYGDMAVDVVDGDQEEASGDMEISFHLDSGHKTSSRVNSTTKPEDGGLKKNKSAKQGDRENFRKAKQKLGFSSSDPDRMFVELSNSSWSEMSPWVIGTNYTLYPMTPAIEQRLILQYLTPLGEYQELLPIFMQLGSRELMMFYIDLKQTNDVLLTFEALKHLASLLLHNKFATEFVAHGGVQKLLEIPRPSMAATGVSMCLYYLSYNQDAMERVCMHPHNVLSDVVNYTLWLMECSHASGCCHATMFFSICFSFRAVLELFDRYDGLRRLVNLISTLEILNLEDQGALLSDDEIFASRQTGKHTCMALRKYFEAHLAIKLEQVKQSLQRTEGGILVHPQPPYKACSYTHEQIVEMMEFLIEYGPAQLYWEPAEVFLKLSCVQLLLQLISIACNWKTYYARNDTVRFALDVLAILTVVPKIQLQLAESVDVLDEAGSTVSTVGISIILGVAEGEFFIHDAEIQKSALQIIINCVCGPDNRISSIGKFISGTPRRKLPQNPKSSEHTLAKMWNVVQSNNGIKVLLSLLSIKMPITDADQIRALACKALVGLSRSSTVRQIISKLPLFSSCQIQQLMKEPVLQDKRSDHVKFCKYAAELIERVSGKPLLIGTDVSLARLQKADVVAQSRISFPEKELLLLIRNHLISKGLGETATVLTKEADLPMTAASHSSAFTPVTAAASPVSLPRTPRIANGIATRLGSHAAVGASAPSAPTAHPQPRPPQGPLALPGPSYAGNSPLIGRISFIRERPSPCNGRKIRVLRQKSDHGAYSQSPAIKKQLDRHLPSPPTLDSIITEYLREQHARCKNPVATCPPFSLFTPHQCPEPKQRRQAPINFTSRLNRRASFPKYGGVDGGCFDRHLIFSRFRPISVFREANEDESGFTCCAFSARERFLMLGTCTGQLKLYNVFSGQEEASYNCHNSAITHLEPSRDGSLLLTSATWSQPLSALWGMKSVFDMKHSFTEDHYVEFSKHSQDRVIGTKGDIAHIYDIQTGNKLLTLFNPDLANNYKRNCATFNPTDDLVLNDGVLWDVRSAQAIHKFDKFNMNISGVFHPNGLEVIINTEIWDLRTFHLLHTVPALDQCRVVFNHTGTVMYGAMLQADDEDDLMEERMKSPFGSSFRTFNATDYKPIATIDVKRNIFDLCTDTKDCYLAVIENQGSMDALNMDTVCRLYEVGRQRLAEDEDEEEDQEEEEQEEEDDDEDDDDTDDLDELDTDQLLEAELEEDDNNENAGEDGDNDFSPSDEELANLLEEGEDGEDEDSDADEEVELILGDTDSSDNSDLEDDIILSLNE
WDR5: WD repeat-containing protein 5 (WDR5, Homo sapiens, UniProt P61964)
The “SYPRO Orange fluorescence” was 14600 a.u. (DCAF1; 50 °C).
It gave 23600 a.u. for “SYPRO Orange fluorescence” (DCAF1; 56.61 °C).
DCAF1; 69.21 °C — “SYPRO Orange fluorescence”: 55200 a.u.
The “SYPRO Orange fluorescence” was 43300 a.u. (DCAF1; 81.01 °C).
WDR5; 50 °C — “SYPRO Orange fluorescence”: 14500 a.u.
For WDR5; 81.81 °C: “SYPRO Orange fluorescence” read 29300 a.u.
WDR5; 63.41 °C — “SYPRO Orange fluorescence”: 8550 a.u.
The “SYPRO Orange fluorescence” was 8230 a.u. (DCAF1; 32.2 °C).
It gave 14700 a.u. for “SYPRO Orange fluorescence” (WDR5; 25.8 °C).
For WDR5; 43.4 °C: “SYPRO Orange fluorescence” read 14400 a.u.
For DCAF1; 53.61 °C: “SYPRO Orange fluorescence” read 17300 a.u.

Excerpt of the above (study 4):
For WDR5; 81.81 °C: “SYPRO Orange fluorescence” read 29300 a.u.
The “SYPRO Orange fluorescence” was 43300 a.u. (DCAF1; 81.01 °C).
The “SYPRO Orange fluorescence” was 8230 a.u. (DCAF1; 32.2 °C).
For WDR5; 43.4 °C: “SYPRO Orange fluorescence” read 14400 a.u.
